Assay results collected from several papers.
Protocols differ between the studies behind these lines. ± gives the spread as reported.

Structure (SMILES)	test	test system	conditions	tissue uptake [%ID/g]
N=C(N)NCc1ccc(C(=O)NCCCC[C@H](NC(=O)N[C@@H](CCC(=O)O)C(=O)O)C(=O)O)cc1[211At]		SCID mouse, PC-3 xenografts, spleen	4 h	3.63 ± 2.4
CN[C@](C)(C[18F])C(=O)O		SCID mouse SK-OV-3 xenograft, spleen	60 min, post injection	8.9 ± 2.1
C[S]1CC[S]2CC[P](CO)(CO)[99Tc+]12.[C-]#[O+].[C-]#[O+].[C-]#[O+]		female CF-1 mouse, small intestine	intravenous, 24 h	0.3
C=Cc1cc(O)cc2nc(-c3ccc(O)c([76Br])c3)oc12		female C57BL/6 mouse, liver	3 h, high dose, together with: estradiol 20 µg blocking	0.28 ± 0.1
N=C(N)NCc1ccc(C(=O)NCCCC[C@H](NC(=O)N[C@@H](CCC(=O)O)C(=O)O)C(=O)O)cc1[131I]		SCID mouse, PC-3 xenografts, heart	4 h	0.17 ± 0.09
COc1cc2ncnc(Oc3cccc(N[11C](=O)Nc4cc(C(C)(C)C(F)(F)F)on4)c3)c2cc1OC		Balb/c nude mouse, female, A375 melanoma xenograft, tumor	6.6 MBq, 60 min	1.85 ± 0.09
N=C(N)NCc1ccc(C(=O)NCCCC[C@H](NC(=O)CCCCCCC(=O)NCCCC[C@H](NC(=O)N[C@@H](CCC(=O)O)C(=O)O)C(=O)O)C(=O)O)cc1[131I]		SCID mouse, PC-3 xenografts, muscle	2 h	0.13 ± 0.03
O=C(O)CC[C@H](NC(=O)O[C@@H](CCCCNC(=O)c1ccc([18F])cc1)C(=O)O)C(=O)O		mouse, PC-3 PIP/flu xenografts, lung	30 min	2.07 ± 1.51
CC[C@H](C)[C@@H]1NC(=O)[C@@H](NC(=O)CNC(=O)c2ccc(F)cc2)CSSC[C@@H]2NC(=O)[C@H](C)NC(=O)CNC(=O)[C@@H]3CCCN3C(=O)[C@@H]3CSSC[C@@H](C(=O)NCC(=O)O)NC(=O)[C@H](Cc4ccc(O)cc4)NC(=O)CNC(=O)[C@H](CC(N)=O)NC(=O)CNC(=O)[C@H](CCCNC(=N)N)NC(=O)[C@H](CSSC[C@H](NC(=O)[C@H](CCCNC(=N)N)NC(=O)[C@H](Cc4ccccc4)NC(=O)[C@H](CC(C)C)NC(=O)[C@H](CC(C)C)NC(=O)[C@H]([C@@H](C)O)NC(=O)CNC(=O)[C@H](CC(C)C)NC(=O)[C@H](CC(=O)O)NC(=O)[C@H]([C@@H](C)O)NC(=O)[C@H](CCCNC(=N)N)NC(=O)[C@H](CCSC)NC(=O)[C@H](CC(N)=O)NC(=O)[C@H](CC(C)C)NC1=O)C(=O)N[C@@H](CCCNC(=N)N)C(=O)N[C@@H](CCCNC(=N)N)C(=O)N[C@@H](CC(=O)O)C(=O)N[C@@H](CO)C(=O)N[C@@H](CC(=O)O)C(=O)N3)NC(=O)[C@H]([C@@H](C)CC)NC2=O [fluorine-18 labelled]	γ-counting	mouse, pancreas		0.3 ± 0.1
